Results of several laboratories.
Numbered parts are unrelated; each lists some results of a single study. Changes are numbered by the printed parent chain.

Sample 1 — method: protein-binding microarray; form: double-stranded DNA, one strand shown; medium: in vitro; concentration: 250 nM; notes: 60-bp whole probe; together with: salmon DNA 0.4 mg/ml; relative to: random background probes; direction: higher = stronger binding; quantity: log fluorescence; shared flanks, not repeated: GCCTAGCAC … GTCTTGATTCGCTTGACGCTGCTG
Target: Interferon regulatory factor 7, full length, phosphomimetic (IRF7, Homo sapiens, UniProt Q92985, residues 1-503, S101K/S471D/S472D/S475D/S476D/S477D/S483D/S484D/S487D)
Construct (chain): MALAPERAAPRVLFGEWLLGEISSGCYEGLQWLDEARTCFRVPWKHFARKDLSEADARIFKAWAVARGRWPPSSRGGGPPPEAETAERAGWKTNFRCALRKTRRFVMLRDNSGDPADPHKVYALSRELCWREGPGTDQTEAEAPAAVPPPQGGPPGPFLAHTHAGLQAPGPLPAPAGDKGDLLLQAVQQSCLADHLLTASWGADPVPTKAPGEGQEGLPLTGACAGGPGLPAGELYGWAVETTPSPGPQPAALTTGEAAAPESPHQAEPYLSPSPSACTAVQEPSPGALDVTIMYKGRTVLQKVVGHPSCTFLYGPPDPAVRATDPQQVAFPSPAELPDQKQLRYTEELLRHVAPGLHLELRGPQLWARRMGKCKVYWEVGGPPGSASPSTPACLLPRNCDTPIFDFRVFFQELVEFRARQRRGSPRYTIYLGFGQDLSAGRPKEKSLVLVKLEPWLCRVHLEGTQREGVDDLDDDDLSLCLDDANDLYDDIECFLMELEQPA
TCTAATTAGAATTTAAAACAGTGCTAG: 0.621 z-score
TGGGTGACTCTTACTCATTAGTGCTAG: -0.938 z-score
GACGGTTTCCGGTTTCGGGACGTGCTA: 7.9 z-score
GATGGTCTCCTTTTCCTGACGTGCTAG: 1.41 z-score
CCTCCTCCCTGTTTCCATCTGTGCTAG: 0.951 z-score
ACAAGTTTCTCCTTTGTAAAGTGCTAG: 3.06 z-score
TATTTTTTTTATTTATAAATGTGCTAG: 1.47 z-score
CTAGGTATCGGGTATCGGTTAGTGCTA: 2.04 z-score
TCAAGATTTTTTTTCCTACTGTGCTAG: 1.07 z-score
TTAGATTACAGTTTCGATTAGTGCTAG: 8.38 z-score

Sample 2 — method: competition protein-binding microarray; form: double-stranded DNA, one strand shown; medium: in vitro; concentration: 2 µM; together with: Pho4 competitor, 0.05 µM; direction: higher = stronger binding; quantity: fluorescence intensity; shared flanks, not repeated: … GTCTTGATTCGCTTGACGCTGCTG
Target: Centromere-binding protein 1, full length, His-tagged (CBF1, Saccharomyces cerevisiae, UniProt P17106, residues 1-351)
UniProt P17106, sequence (whole entry, looked up): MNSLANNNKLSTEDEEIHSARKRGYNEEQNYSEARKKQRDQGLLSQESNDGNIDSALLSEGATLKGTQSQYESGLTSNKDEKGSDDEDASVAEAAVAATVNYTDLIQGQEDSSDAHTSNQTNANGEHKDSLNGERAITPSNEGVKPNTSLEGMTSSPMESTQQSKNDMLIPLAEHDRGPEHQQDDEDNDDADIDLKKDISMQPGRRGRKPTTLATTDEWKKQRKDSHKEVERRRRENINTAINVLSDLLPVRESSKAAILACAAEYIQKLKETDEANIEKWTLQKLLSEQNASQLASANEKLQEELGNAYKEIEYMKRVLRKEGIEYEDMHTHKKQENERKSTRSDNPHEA
Notes: whole 60-bp probe, lowest competitor level
AGGGTGGGTTTGATTTTCATCTTGATGCAACCTCTC: 64.2 a.u.
CTAACGAAGGTTTTTCACGTGCTCTACAAGCCAAGT: 1240 a.u.
GTCTTGTCTCATTTACACGTGTTTTTCCCCACTTCA: 998 a.u.
AAAGCGGTAATTTGTCACGCCACTTCACATATCTAT: 308 a.u.
CGGGGTTAAGTTTGTTGCGTGGGTGGCTTGCAGCAG: 87.8 a.u.
CCGTCTTAGCACCCGCACACGCAGACGCAGCGCTCA: 65.8 a.u.
ACAATCGCATAATCGCACGTATATACAGGCACACAA: 77.4 a.u.
CGTCCTAGTGATTGTCACTAAACTTCCATGAGGAAG: 91.7 a.u.
GGCGAGATAAAGCAGAACGTGAAGCTCAGTTAAGTA: 88.2 a.u.
AGCACTTACGGTTACAACGTGAGCCCTGTCGAAGAA: 99.1 a.u.
CGTCCTAGTGATTGTCAAGTGGGTGCCATGAGGAAG: 98.5 a.u.
TGCAAGGGTTATGGGCATGCGCATCTATGTGGCGTT: 86.7 a.u.
TGCGCAACAACTTGGAATGTGGGTGTATGTCTAGAA: 69.9 a.u.
GGTATGGCGCCGGATTGGGTTTTTTCATCAAGAATT: 79.2 a.u.
AGCCGGCAGTTGAATCAGGTGCTTCATCACTGGCAT: 157 a.u.
CATACCCAACCTTTTCACGTGCAATAAGATATTTGT: 1140 a.u.
CGGGGTTAAGTTTTTCACGTGCAATGCTTGCAGCAG: 986 a.u.
TAAAAATAACACCATCACGTATTTTAACGAATCAGA: 105 a.u.
TGTTGCCCGCCACTTAGTGTGACAGTCCCAGTCCCA: 59.7 a.u.

Sample 3 — method: protein binding microarray; form: double-stranded DNA, one strand shown; medium: in vitro; concentration: not given; relative to: not given; direction: higher = stronger binding; quantity: E-score
Target: Histone acetyltransferase KAT6A, winged helix 1, GST fusion (KAT6A, Homo sapiens, UniProt Q92794, residues 1-85)
Notes: 8-mer, flanks averaged, mean of 2 arrays, mostly near background
Residues (chain): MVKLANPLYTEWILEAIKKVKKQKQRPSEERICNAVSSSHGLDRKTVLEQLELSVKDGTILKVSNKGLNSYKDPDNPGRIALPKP
AACGCCTC: 0.0926
CCTGAAAG: -0.288
AGTCCCAA: -0.201
ATACTGTA: -0.0615
GAAACCCC: 0.124
AAGGTGTC: -0.0385
CCTCTCCG: 0.11
ATAATCGG: 0.0357
ATGGTTGC: -0.0239
GCGAATCA: 0.065
GTTCGATA: -0.0154
GACACCGC: 0.261
CGCGCGGC: 0.463
GTGCCTAA: -0.147
CGGTCCTA: 0.173
AGCCCGGC: 0.309
CATATTTA: -0.0879
ATCATTCC: -0.0116
CCCTTCGG: 0.0905
TTAGAGAA: -0.115
AGGGTGGC: -0.0956
ATAAATTA: -0.0599

Sample 4 — method: RNAcompete; form: RNA; medium: in vitro; concentration: 20 nM; notes: 7-mer, probes averaged, single round; relative to: mean of 7-mers; direction: higher = stronger binding; quantity: 7-mer Z-score
Target: PABPC1L2, full length, GST fusion (mouse, UniProt A0ABA7IW68)
Construct (chain): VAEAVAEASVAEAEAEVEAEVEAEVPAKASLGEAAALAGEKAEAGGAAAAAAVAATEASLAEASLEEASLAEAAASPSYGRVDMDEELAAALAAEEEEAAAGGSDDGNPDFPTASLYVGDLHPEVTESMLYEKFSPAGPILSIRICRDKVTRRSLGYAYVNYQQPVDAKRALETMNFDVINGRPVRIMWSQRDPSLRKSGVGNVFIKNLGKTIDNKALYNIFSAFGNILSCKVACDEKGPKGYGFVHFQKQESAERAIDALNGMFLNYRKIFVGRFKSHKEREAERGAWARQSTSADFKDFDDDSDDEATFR
AUUUGGC: -0.195
CUGUGGC: -0.171
UCUUGAG: -0.342
GAGUUCA: -0.204
UGGGUCU: -0.197
GUCACGU: -0.22
UACGACG: -0.155
UUACGCA: -0.191
CUACAGC: -0.382
UAGCCGG: -0.0899
GGGAAAU: 0.196
GUGGCGC: -0.0663
UUAACCU: -0.237
CGAAGUA: 0.0587
UAGCACU: -0.177
CCGACCU: -0.237
CUUCAGG: -0.244
UUAUCCC: -0.436

Sample 5 — method: universal PBM; form: double-stranded DNA, one strand shown; medium: in vitro; concentration: 600 nM; direction: higher = stronger binding; quantity: E-score
Target: Sal-like protein 4, full length isoform A (SALL4, Homo sapiens, UniProt Q9UJQ4, residues 1-1053)
UniProt Q9UJQ4, sequence (whole entry, looked up): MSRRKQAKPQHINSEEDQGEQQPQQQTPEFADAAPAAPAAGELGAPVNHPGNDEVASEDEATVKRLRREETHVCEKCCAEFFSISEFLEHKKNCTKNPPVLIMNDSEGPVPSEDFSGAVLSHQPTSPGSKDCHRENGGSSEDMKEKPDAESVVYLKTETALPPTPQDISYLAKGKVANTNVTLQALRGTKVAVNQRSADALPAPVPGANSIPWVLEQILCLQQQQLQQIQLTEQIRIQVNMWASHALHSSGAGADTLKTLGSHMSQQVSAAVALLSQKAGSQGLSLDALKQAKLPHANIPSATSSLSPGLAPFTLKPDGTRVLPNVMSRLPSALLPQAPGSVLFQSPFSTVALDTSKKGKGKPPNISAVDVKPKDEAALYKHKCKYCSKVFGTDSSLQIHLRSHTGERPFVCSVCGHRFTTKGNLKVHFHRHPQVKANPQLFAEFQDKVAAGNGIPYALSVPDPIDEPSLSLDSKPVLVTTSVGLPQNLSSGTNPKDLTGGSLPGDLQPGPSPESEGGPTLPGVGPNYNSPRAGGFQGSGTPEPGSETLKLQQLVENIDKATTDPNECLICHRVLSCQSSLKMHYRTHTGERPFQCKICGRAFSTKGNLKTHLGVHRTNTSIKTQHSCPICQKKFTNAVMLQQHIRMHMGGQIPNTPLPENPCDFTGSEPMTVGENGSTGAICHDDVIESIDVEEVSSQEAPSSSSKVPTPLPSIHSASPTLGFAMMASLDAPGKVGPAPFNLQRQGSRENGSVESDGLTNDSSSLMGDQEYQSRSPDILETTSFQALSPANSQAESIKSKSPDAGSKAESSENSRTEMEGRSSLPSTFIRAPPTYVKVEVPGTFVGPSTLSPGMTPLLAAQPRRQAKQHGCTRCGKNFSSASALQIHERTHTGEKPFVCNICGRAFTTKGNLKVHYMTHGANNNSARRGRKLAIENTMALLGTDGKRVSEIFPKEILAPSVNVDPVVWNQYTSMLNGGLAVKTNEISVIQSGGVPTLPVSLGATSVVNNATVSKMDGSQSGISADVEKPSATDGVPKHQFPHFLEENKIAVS
Notes: 8-mer, flanks averaged, mean of replicates
CCGCTTAC: -0.205
CGCGAGAA: -0.122
CTTTAGGA: 0.0756
AATACACC: 0.179
GGCGTCAC: -0.226
TCCGCACA: -0.0433
ACATGATA: 0.321
AACTACCT: 0.0461
CAATTACG: 0.161
ACCTCAGA: -0.183
CCTTGGGC: -0.351
TATCCACA: 0.158
CGTAATAA: 0.397
TTCACAAA: 0.129
CGTTACGA: -0.00898
GCACTAAC: -0.0903
ATCGGTCC: -0.25
ATCGGTTG: 0.0296
CTAGTGAC: 0.0819
CTTGTAGA: -0.139

Sample 6 — method: DHFR PCA, deep sequencing; medium: yeast; together with: (+)-ABA 2500 µM; relative to: wild-type fitted maximum; direction: higher = stronger binding; quantity: relative binding score
Target: ABI1, truncated, D143A, DHFR fusion (Arabidopsis thaliana)
Notes: methotrexate growth selection, single substitutions
Starting sequence: PYL1, truncated, DHFR fusion (Arabidopsis thaliana); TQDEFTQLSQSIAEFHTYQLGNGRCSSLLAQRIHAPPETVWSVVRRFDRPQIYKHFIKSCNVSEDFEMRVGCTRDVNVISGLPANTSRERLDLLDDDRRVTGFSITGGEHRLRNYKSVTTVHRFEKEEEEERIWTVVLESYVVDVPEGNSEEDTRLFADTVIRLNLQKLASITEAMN
R155S: 90.3%
G81F: 60.1%
T106F: 106%
V40W: -16.9%
S104N: 81.6%
E89V: 10.2%
Q31S: 76.7%
E151M: 97.9%
R46N: 85.6%
D3L: 98.2%
R155G: 81.7%
V118Q: 96.5%
T106P: 71.5%
R111G: 73.3%
T154D: -4.98%
E109K: 99.8%
V118M: 105%
T86F: 91.6%

Some of these lines once more (sample 5):
ATCGGTTG: 0.0296
CTTGTAGA: -0.139
AATACACC: 0.179
CAATTACG: 0.161
ACCTCAGA: -0.183
CGCGAGAA: -0.122
